# Published values pooled from the literature.
# A part holds a random share of what one study measured. Changes are numbered by the printed parent chain.

# Series 1 — target: CCNA1, cyclin fold, Cln2 fusion (human); method: yeast growth competition, sequencing; sample: yeast; notes: weak parent motif; reference: not given; reading: higher = stronger binding
# Parent: GMNC docking peptide (human); KNAKRNLSSEFAN; partner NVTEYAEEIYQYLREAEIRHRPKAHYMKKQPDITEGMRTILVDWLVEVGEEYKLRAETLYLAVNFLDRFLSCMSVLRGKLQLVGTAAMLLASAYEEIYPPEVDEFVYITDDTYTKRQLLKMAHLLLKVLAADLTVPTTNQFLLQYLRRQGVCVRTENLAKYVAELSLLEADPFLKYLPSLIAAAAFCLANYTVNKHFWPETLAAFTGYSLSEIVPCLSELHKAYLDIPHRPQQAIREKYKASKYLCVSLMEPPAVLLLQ
Substitution,normalised enrichment score
A3E,0.204
R5P,-0.119
N6H,-0.424
N2D,0.454
F11V,0.185
S9Y,0.812
S9N,0.645
A3S,0.572
L7M,0.00818
F11H,0.00479
N2C,0.394
E10A,-0.0957
R5T,0.324
K4N,0.0613
S9D,0.482
A3Y,0.0939
N6E,0.432
E10Y,-0.277
N2V,0.288

# Series 2 — method: protein-binding microarray; form: double-stranded DNA, one strand shown; sample: in vitro; tested at: 250 nM; notes: 60-bp whole probe; together with: salmon DNA 0.4 mg/ml; reference: random background probes; reading: higher = stronger binding; all sequences stand within: GCCTAGCAC … GTCTTGATTCGCTTGACGCTGCTG
# Target: Interferon regulatory factor 5, full length, phosphomimetic (IRF5, Homo sapiens, UniProt Q13568-2, residues 1-514, K96S/S451D/S453D/S456D/S462D)
Sequence,log fluorescence [z-score]
TGAGGACTGCTACTGCTTTAGTGCTAG,-0.437
TCAAGTTTTGAGCTCTGACTGTGCTAG,0.0543
ATTCATATATATATGAAAAAGTGCTAG,1.11
TTAGGACTGTTTTTCCTTTAGTGCTAG,0.392
GACGATATCAGACCGGAGACGTGCTAG,0.383
GACGGTATCGACTGTCGGGACGTGCTA,1.99
TTAGGTATCGACACTGGATTAGTGCTA,2.73
TTAGACCTCAGTTTCGATTAGTGCTAG,9.52
AGTTCTAAGGATTTCAGTTTGTGCTAG,0.633
GACGGATTCCTTATCCTGACGTGCTAG,-0.105
ACTTTTTTTTTTCCCTGAAAGTGCTAG,1.84
GGGCCACAAAGCAATAAGAAGTGCTAG,-0.444
GACGACTTCGGGTATCGAGACGTGCTA,0.855
GCCGATTTCAGTCTCGAGACGTGCTAG,2.13

# Series 3 — method: RNA Bind-n-Seq; form: RNA; sample: in vitro; tested at: 200 nM; notes: whole 134-nt RNA, ends assumed; together with: 150 mM KCl; reference: input library; reading: higher = stronger binding
# Target: Ras GTPase-activating protein-binding protein 1, full length (G3BP1, Homo sapiens, UniProt Q13283)
# UniProt Q13283, sequence (whole entry, looked up): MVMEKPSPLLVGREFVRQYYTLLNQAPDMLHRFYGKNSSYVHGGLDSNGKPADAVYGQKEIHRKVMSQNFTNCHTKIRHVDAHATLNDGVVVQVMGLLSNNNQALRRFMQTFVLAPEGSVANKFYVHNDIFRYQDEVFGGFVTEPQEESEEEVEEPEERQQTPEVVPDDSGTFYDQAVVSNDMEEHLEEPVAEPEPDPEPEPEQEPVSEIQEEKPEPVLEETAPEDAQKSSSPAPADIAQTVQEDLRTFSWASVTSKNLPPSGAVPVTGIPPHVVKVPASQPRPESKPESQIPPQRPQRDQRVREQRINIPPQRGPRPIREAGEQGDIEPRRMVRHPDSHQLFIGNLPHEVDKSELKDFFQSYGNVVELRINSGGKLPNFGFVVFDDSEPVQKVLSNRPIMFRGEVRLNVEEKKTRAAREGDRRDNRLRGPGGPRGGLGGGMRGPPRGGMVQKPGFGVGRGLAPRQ
Sequence,log2 enrichment
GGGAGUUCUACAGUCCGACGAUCCCUCAAGUCCUGUGCUACACAUCGUAUGUACCGAAUCGGGGCGGGGCGGGCGGAAAGUAUUAUGUUACGCCGUUCGGAUCUGCACUUCCAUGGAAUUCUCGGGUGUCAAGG,0.488
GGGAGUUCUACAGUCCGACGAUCCACAGACAACACGCACCCACACAGACACAGAGGGAAGGGGUUGGGAUGGGGACAGGGUGCACAGCAGGGCCGGGUAGGACCCCAGCCCCUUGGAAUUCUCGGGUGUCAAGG,2.02
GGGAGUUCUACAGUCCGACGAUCCCUGUGCUACACAUCGUAUGUACCGAAUCGGGUUUUUUUGGUUUUUUUGGGGUUUUUUUGGAAAGUAUUAUGUUACGCCGUUCGGAUCUGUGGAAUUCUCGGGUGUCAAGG,-1.04
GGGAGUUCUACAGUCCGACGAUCUGUGCUACACAUCGUAUGUACCGAAUCGGGGUUUUUUUGGGGAAAAAGGGGAAAAAAAGGGGAAAGUAUUAUGUUACGCCGUUCGGAUCUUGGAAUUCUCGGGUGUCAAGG,-0.449
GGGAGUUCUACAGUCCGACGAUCCAAGUCCUGUGCUACACAUCGUAUGUACCGAAUCGGGAAAAAGGGAGGGAAAGGGAAAGUAUUAUGUUACGCCGUUCGGAUCUGCACUUCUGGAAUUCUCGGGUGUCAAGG,0.643
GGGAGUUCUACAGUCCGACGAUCAGUCCUGUGCUACACAUCGUAUGUACCGAAUCGGGGUGGGGUUUUUGGGGUUUGGGGAAAGUAUUAUGUUACGCCGUUCGGAUCUGCACUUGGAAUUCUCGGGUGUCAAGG,0.109
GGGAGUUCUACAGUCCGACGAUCCCUCAAGUCCUGUGCUACACAUCGUAUGUACCGAAUCGGAAGGAAGGAAGGGGAAAGUAUUAUGUUACGCCGUUCGGAUCUGCACUUCCAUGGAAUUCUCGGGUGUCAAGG,-0.331
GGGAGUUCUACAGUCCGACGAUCAAGUCCUGUGCUACACAUCGUAUGUACCGAAUCGGGCCCCGGGCCCCGGCCCCGGGGAAAGUAUUAUGUUACGCCGUUCGGAUCUGCACUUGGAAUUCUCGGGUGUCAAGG,-1.26
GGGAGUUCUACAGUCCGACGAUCGCAGGAAGUAAAAACAAAUGGAAAUGCUUCGGAGAGUGGCAGGGGUGGGGGUUGCUAAGGAAAGGGUGGGAUGGGAGUGGGUAAAGAGUUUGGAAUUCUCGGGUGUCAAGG,1.17

# Series 4 — method: RNA Bind-n-Seq; form: RNA; sample: in vitro; tested at: not given; reference: input RNA pool; reading: higher = stronger binding
# Target: RING finger protein unkempt homolog, zinc fingers 1-6, GST-SBP tag (UNK, Homo sapiens, UniProt Q9C0B0, residues 30-357)
# Notes: RNA with constant flanks, human-mouse chimeric sites, ends assumed
# Construct (chain): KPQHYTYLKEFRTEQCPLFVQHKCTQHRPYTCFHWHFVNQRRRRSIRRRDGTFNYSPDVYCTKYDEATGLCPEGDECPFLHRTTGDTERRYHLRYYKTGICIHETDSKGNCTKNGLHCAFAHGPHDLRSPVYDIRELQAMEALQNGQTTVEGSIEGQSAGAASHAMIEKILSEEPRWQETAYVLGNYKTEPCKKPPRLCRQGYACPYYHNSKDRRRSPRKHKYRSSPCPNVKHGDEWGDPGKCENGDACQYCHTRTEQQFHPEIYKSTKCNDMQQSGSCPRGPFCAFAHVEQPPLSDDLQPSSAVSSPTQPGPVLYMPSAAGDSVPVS
Sequence,bound/input enrichment [ratio]
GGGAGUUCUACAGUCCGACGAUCUUAAACACCAAGCUGAUGGACUCUGAUGGCCUCCAUCUCUCAGGCACGUUUGCCUUCUCUUAGUCCCUGUUUUCGGGAUGUUAUGAAUCUCAGUACUGUGGUUUGAAAGCACCAGCUUUGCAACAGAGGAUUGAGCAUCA,0.177
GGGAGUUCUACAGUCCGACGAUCCAGUCCCCGUGUCCCAGUGCAGGACGAUGUGAACAAAAACUCAAAGCGGACCCUCUAUUGUAGUUCUUGAUUCUCGAGUGCCAUUAUUAUUGUUUGUAAAAAAGGAAUUUUUUUUAAAGACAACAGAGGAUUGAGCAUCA,0.232
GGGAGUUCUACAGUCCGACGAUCAAAGAGUGGAUAGAGUGUGCACACGGGAUCGGUUAUACUCGGGCAGAAAAGGAGUGCAAGAUAGAGUUCGAUGACUUCGAAGAGUGCUUGCUUCGGUACAAAACGAUGAGGCGAAUGCAUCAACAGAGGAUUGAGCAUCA,0.325
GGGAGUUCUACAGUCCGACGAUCCAGUCCCCGUGUCCCAGUGCAGGACGAUGUGAACAAAAACUCAAAGCGGACCCUCUAUUGUAGUUCUUGAUUCUCGAAAUGUGCUAUUAUUGUUUGUAAAAAAGGAAAAAAGAAAAGAGACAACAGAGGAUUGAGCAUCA,0.239
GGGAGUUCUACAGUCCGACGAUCAGAAUCUUGGGACUGUUUUACUUAAUUGGUCAUUGGUAGCUUAACAAGCAUGGAGAUAAGAUUAGAAAUCUUGACAUCAACAGGUAUUAAGCAGAAAAAACCAUGGCCACGUGUCUCCUGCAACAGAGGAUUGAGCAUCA,0.11
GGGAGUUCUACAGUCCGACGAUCCUGUGUGUGCUGAAUAAAUGGCUUGUAAGAACUGUCCUCCAAGCUGUAACCCAUGCUGUUAUUAUAGUUGCUGCAAAAUGUUCUUCCUGAUAUUGAUUUUAUUUGUUAACUGAAGGUCUCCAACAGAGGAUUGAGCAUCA,0.516
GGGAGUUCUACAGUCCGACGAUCAUUCCGAUUAUGGACACCGGUGAAAACCCAGAGGUGCCCUUCCCCCGGGACAUGAUUGACUUAGAGGCCAAUUUUGAGAAGAUUGAAAAUGAACUGAAGGAAAUCAACACUAACCAGGAACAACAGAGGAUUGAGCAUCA,0.0909
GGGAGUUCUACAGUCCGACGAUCGUAUACGGUUAUCGAGGAAAGGACUGUAGAGCGAAUGUUUACCUUCUUCCCACAGGGGAGAUAGUUUAUUUUAUCGCCUCAGUGGUAGUCCUGUUUAAUUAUGAGGAGAGGACUCAGCGACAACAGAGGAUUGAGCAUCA,0.345

# For quick reference, copied from above (series 2):
Sequence,log fluorescence [z-score]
TCAAGTTTTGAGCTCTGACTGTGCTAG,0.0543
GCCGATTTCAGTCTCGAGACGTGCTAG,2.13
TTAGGTATCGACACTGGATTAGTGCTA,2.73
GACGATATCAGACCGGAGACGTGCTAG,0.383
TGAGGACTGCTACTGCTTTAGTGCTAG,-0.437
ATTCATATATATATGAAAAAGTGCTAG,1.11
GACGGTATCGACTGTCGGGACGTGCTA,1.99
